Measured values from different studies.
Every numbered part comes from another study and shows a few of its results, in no order.

Set 1
Target: Sal-like protein 4, full length isoform A (SALL4, Homo sapiens, UniProt Q9UJQ4, residues 1-1053)
UniProt Q9UJQ4, sequence (whole entry, looked up): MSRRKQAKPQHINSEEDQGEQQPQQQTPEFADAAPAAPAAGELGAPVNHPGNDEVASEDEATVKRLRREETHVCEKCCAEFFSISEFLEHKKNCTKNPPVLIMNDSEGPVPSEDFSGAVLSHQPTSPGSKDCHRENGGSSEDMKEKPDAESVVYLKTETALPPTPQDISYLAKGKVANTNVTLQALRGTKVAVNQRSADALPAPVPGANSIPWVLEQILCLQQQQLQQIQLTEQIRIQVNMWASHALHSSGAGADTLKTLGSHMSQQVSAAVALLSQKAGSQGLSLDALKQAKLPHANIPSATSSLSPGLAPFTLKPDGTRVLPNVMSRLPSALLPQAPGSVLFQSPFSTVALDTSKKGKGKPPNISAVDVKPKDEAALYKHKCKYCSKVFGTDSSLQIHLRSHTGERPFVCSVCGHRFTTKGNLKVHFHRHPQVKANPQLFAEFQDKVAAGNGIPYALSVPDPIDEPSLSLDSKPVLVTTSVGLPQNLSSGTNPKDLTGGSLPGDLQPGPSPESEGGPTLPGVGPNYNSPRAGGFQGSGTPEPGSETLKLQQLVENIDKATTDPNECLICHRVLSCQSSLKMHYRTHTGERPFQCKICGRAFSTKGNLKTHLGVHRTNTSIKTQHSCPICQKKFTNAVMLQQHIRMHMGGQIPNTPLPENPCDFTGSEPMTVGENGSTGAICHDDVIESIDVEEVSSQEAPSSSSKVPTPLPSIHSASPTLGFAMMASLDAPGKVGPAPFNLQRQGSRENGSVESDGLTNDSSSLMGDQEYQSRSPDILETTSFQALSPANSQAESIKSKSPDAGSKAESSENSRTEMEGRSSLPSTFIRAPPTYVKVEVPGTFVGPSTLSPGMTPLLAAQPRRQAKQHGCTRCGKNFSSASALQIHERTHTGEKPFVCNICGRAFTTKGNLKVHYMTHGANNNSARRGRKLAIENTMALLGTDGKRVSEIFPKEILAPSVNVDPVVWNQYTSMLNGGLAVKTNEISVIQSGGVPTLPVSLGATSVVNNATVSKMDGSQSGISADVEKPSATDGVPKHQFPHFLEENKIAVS
Technique: universal PBM
Molecule type: double-stranded DNA, one strand shown
Matrix: in vitro
Concentration: 600 nM
Setting: 8-mer, flanks averaged, mean of replicates
Reading: higher = stronger binding
Oligonucleotide	E-score
GGGGTACC	-0.237
GATAATTA	0.349
CGCCTGGC	-0.447
GAGCACTC	-0.175
CAGCTCTA	-0.127
GTTTTTGA	0.253
CCTAAAAA	0.106
AAGTGCTC	-0.177
CTAGGATC	-0.132
CATCCACG	-0.0421
GAACAGAC	-0.033
ACCATTCT	0.04
GGCCCTTA	-0.123
ACGCTGTG	-0.0905
GCGGCGCC	-0.322
GGGTGAAC	-0.0806
ATTGCTAA	0.29
CGGTGGTC	-0.22
AAGGGTCA	-0.032
AGTGCTCA	-0.0684

Set 2
Target: RING finger protein unkempt homolog, zinc fingers 1-6, GST-SBP tag (UNK, Homo sapiens, UniProt Q9C0B0, residues 30-357)
Technique: RNA Bind-n-Seq
Molecule type: RNA
Matrix: in vitro
Concentration: not given
Setting: RNA with constant flanks, human-mouse chimeric sites, ends assumed
Relative to: input RNA pool
Reading: higher = stronger binding
Shared flanks, not repeated: GGGAGUUCUACAGUCCGACGAUC … CAACAGAGGAUUGAGCAUCA
Construct (chain): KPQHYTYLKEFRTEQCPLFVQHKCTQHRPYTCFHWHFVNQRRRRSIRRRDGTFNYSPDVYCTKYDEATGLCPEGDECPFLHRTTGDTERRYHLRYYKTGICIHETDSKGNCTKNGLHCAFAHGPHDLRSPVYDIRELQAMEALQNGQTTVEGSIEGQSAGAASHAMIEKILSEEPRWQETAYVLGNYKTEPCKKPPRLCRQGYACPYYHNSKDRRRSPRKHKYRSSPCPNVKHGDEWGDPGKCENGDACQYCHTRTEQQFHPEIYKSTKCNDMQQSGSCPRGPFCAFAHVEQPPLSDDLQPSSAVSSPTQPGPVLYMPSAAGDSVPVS
Oligonucleotide	bound/input enrichment [ratio]
AGCACAACCCCAGCAAAGCUAAGAAAUCCUUGUACAAGUGAACAGAACUGCACCAGCCCAUUUAGCUACAAAAAUGUGCUCAGUCUUACUGACAGAGGAGAGUUUUUCAAUGAACUUGUU	1.72
UUACCCGAGAACGAGGAUGAGCUGGAGAGCACCAACAGGCGCUACACCAAGAGAGACUGCAGCACUUUCCUCAGAACUAGUGAGACGGGCAUCGUGGACCAGGUCAUGGUCACUCUCAAC	0.145
GCGGCAGAAUCAUGGAGGACAUAAUGCAGCUCCCCAAGUCGCGCAUCAACGCCAGCAUGUUACCACAAUUCAUCGACCGGCCCGUGUGCUUCGUGGGGAAGCUGGAAAAGAUUCAUCCCA	0.0712
CCAAUUGUGGAGCAGUACUUGAAGACAAAGAAAAAUUCUAAUAAUUUAAUCAUCAAGUACAUUAGCUGCCGGCUGGUGACAUUUGUGAUUAUACUGUUAGCGUGUAUCUACCUGGGCUAU	0.145
CUGUGACUGAUGGCAGCUACCUGAGUGGCAGCUGAAGUUGACUCCCUCUCCUUGCCUGAACCCCCCCCCACUGCCCCCCCAUCCCCCGCAGAAUUCCGAGAUGUUGCCUCUGCACGGUUC	0.44
AACAGAUUGUCUUUAAGGUCAACGUAGGAGAAUGCUGGGGUGAUCAUAAUUACCCACGUGCCUUCUGACUGAGCUUUAAUGCUGUUCCAUGUUACAUCUUUCCUUCACUCCAGAAUUGUU	0.103
AUGGAGAAGGAUUCUCUGCCCCGCUUUGUGCGCUCUGAGUUUUAUCAGGAGCUAAUCAAGUAGUCAUCUGGUCAGGCUAUGAAAUCAUGCCCUGUGAGUUGAGUUACAUCCUUUGUAGCA	0.323
UCAACAGACAACAUCAAAUACCAGCCUAAAGGGGGGCAGGUACAAAUUGUUACCAAGAAGAUAGACUUAAGCCAUGUGACAUCCAAAUGUGGCUCUCUAAAGAACAUCCGCCACAGGCCA	0.327
GCUCCUCCCCGCUCUGCAGCCUGGGGACACUGGGCUGGGACCAGAAUCCAGCUUUCUUUUAAAACUCUCAGUGUAACUUCUUUUUCUGACAUUUCAUUUUUUUUAAAUAGUGUAUUUUUU	4.24
UGGGCACUCUAUCAGAUAUAUUAAUUUUUUAAUGUAGAUGUAAUUUUAAAAAUGAAUGGCUAGUUUACACGUUUAACUAGGGUUUUACUAUAUAUGUGUACAUAUGUAUAUAUAUAUAUA	4.72
UUACCCGAGAACGAGGAUGAGCUGGAGAGCACCAACAGGCGCUACACCAAGAGGGACUGCAGCACUUUCCUCAGAACUAGUGAGACGGGCAUCGUGGAUCAGGUUAUGGUAACUCUCAAC	0.094

Set 3
Target: Histone acetyltransferase KAT6A, winged helix 2, GST fusion (KAT6A, Homo sapiens, UniProt Q92794, residues 85-181)
Technique: protein binding microarray
Molecule type: double-stranded DNA, one strand shown
Matrix: in vitro
Concentration: not given
Setting: 8-mer, flanks averaged, mean of 2 arrays, mostly near background
Relative to: not given
Reading: higher = stronger binding
Construct (chain): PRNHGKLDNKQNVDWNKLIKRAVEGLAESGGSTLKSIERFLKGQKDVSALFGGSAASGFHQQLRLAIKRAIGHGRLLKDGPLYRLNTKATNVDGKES
Oligonucleotide	E-score
CCAACGCA	0.125
ATCTATTG	-0.0308
ACGTGTTA	-0.243
AACTGAAT	-0.273
CTAGGCAC	-0.00257
AGACTGCA	-0.214
AAACTGGA	-0.0226
CCTTTTGC	0.0829
TAACATGA	-0.115
ATAGCCAT	-0.0298
CCACACCG	0.114
CAGTCCAA	-0.152
GGGCTGCA	0.0516
AGAACCGC	0.143
ACCGTGCC	-0.13
TGGTGCAA	-0.0297
CCATGCAC	-0.0572
CACTCATG	-0.207
AAATGCCC	-0.0912
AGTACAAA	-0.152
GACCCTCC	0.142
CCAGAAGC	0.104
GACGGTTA	-0.107
TCTCCCCA	0.0314
CTCCTAAC	-0.0708

Set 4
Target: Interferon regulatory factor 3, full length, phosphomimetic (IRF3, Homo sapiens, UniProt Q14653, residues 1-427, S386D/S396D/S398D/S402D/T404D/S405D)
Technique: protein-binding microarray
Molecule type: double-stranded DNA, one strand shown
Matrix: in vitro
Concentration: 2540 nM top
Setting: 60-bp whole probe
Together with: salmon DNA 0.4 mg/ml
Relative to: random background probes
Reading: higher = stronger binding
Shared flanks, not repeated: GCCTAGCAC … GTCTTGATTCGCTTGACGCTGCTG
Construct (chain): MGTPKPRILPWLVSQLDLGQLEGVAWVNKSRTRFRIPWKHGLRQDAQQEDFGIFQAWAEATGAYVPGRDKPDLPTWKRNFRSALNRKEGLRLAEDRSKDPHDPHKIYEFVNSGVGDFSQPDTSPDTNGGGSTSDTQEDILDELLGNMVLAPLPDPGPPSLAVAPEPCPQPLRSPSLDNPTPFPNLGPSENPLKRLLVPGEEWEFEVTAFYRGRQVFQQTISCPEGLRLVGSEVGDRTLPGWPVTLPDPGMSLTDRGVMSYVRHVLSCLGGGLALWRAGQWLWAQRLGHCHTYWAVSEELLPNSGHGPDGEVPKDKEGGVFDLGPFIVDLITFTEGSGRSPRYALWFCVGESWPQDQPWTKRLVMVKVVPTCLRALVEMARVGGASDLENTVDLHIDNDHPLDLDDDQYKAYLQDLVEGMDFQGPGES
Oligonucleotide	fitted relative affinity [z-score]
TCACATTTATTTACTCTCACTGTGCTA	0.969
GACGATATCAGGCTGGAGACGTGCTAG	-0.167
TCATTCATGAAGTTTTAAACTGTGCTA	0.379
TCAATTATCCTTGTCCCACTGTGCTAG	1.74
GACGAACTGAGTATCGAGAAGTGCTAG	-0.0718
GACAGTTTCGACACTGGGGACGTGCTA	2.89
ACTCCTGTACATCTATGTAGGTGCTAG	0.423
AGGAAGATCATTCTCACTGCGTGCTAG	0.737
GGGCCCTGCTGGGAAGTCAGGTGCTAG	-0.96
GACGGTATCGGGTTTCGGCACGTGCTA	2.79
TTAGAACTGAGTATCGATTTGTGCTAG	0.772
TTTGGACACAGACACAGGCCGTGCTAG	-0.223
TTAGAACTGCGGTTTCGATTAGTGCTA	2.5
CCAAATCTGTGTTATTAAAATGTGCTA	0.669
TCGTAAGCAAAAATGATTGGGTGCTAG	-0.284
TTAGGTTTCCTACTGCTTAAGTGCTAG	4.86
CATACAATTTCAGATTCCAGTGTGCTA	2.75

Repeated from above (set 1):
Oligonucleotide	E-score
CAGCTCTA	-0.127
GGGGTACC	-0.237
GATAATTA	0.349
CATCCACG	-0.0421
GGGTGAAC	-0.0806
GAACAGAC	-0.033
ATTGCTAA	0.29
